Published values gathered from unrelated publications.
Numbered parts are unrelated; each lists some results of a single study. Several values in a cell are separate wells, animals, samples, runs or records.
Sequence of UniProt P15056 (whole entry, unmodified, looked up): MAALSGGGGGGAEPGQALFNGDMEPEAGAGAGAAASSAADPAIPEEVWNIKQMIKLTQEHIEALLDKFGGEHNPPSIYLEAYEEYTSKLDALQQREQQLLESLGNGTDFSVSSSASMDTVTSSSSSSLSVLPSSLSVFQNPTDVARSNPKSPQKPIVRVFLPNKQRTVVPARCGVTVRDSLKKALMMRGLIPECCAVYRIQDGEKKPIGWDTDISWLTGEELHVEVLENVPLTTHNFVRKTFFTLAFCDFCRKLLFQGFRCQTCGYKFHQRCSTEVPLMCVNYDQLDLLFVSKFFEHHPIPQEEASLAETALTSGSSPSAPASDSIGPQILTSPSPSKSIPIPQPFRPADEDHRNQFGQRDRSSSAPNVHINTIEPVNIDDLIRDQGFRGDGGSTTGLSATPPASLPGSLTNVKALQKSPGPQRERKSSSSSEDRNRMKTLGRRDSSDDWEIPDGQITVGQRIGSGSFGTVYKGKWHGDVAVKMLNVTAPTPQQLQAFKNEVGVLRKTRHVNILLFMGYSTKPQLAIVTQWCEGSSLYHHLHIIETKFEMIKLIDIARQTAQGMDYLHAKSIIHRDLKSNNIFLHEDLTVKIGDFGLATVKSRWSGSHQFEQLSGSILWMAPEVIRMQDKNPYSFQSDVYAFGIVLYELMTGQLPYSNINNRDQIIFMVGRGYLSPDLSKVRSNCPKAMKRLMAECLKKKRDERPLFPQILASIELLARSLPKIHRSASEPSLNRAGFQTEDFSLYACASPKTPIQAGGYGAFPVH
Sequence of UniProt Q9Y6E0 (whole entry, looked up): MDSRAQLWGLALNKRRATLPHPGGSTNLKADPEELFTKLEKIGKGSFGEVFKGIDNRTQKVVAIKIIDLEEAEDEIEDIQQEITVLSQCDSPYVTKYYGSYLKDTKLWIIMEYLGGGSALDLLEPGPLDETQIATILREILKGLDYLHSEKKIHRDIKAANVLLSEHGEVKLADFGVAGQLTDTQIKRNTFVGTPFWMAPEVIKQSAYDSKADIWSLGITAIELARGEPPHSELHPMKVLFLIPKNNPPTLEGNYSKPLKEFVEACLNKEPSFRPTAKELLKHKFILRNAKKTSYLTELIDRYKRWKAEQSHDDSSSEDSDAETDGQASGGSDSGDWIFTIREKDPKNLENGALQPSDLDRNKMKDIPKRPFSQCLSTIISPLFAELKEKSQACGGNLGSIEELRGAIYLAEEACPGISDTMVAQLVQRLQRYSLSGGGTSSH
Sequence of UniProt P53355 (whole entry, looked up): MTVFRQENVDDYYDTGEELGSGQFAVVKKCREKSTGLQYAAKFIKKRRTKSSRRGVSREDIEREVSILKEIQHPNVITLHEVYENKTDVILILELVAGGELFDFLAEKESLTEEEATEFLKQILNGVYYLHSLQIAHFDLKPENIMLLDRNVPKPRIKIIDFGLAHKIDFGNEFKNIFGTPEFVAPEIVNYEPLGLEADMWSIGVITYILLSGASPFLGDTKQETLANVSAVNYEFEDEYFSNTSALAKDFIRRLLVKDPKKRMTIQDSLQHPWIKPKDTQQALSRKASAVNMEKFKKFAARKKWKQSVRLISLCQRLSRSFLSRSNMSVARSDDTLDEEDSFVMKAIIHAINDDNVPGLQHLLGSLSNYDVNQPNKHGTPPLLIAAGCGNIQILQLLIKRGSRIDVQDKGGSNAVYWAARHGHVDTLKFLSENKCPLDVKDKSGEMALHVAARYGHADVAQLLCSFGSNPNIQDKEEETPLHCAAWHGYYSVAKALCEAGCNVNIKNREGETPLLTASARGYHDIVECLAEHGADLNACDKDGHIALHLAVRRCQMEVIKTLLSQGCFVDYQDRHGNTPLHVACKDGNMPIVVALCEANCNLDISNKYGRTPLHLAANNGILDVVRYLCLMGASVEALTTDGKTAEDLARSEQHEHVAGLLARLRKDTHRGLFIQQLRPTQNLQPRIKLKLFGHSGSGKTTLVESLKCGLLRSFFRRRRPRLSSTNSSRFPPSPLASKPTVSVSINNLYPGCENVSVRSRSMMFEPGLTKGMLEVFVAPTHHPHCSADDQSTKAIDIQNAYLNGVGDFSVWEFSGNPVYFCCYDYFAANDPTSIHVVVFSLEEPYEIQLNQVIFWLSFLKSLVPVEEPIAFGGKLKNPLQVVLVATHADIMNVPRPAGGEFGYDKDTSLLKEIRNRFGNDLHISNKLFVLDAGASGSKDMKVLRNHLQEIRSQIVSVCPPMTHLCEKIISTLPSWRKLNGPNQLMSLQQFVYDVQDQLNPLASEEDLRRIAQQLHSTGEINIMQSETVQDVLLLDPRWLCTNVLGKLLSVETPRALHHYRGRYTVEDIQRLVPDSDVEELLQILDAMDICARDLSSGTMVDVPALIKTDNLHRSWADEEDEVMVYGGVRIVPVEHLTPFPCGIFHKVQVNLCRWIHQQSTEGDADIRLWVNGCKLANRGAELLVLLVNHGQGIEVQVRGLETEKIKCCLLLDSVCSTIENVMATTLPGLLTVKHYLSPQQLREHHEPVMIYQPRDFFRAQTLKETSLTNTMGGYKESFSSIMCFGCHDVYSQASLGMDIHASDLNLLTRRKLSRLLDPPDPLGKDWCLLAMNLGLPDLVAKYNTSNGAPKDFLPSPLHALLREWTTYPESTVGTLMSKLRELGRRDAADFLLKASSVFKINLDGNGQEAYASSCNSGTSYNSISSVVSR
Sequence of UniProt Q99683 (whole entry, looked up): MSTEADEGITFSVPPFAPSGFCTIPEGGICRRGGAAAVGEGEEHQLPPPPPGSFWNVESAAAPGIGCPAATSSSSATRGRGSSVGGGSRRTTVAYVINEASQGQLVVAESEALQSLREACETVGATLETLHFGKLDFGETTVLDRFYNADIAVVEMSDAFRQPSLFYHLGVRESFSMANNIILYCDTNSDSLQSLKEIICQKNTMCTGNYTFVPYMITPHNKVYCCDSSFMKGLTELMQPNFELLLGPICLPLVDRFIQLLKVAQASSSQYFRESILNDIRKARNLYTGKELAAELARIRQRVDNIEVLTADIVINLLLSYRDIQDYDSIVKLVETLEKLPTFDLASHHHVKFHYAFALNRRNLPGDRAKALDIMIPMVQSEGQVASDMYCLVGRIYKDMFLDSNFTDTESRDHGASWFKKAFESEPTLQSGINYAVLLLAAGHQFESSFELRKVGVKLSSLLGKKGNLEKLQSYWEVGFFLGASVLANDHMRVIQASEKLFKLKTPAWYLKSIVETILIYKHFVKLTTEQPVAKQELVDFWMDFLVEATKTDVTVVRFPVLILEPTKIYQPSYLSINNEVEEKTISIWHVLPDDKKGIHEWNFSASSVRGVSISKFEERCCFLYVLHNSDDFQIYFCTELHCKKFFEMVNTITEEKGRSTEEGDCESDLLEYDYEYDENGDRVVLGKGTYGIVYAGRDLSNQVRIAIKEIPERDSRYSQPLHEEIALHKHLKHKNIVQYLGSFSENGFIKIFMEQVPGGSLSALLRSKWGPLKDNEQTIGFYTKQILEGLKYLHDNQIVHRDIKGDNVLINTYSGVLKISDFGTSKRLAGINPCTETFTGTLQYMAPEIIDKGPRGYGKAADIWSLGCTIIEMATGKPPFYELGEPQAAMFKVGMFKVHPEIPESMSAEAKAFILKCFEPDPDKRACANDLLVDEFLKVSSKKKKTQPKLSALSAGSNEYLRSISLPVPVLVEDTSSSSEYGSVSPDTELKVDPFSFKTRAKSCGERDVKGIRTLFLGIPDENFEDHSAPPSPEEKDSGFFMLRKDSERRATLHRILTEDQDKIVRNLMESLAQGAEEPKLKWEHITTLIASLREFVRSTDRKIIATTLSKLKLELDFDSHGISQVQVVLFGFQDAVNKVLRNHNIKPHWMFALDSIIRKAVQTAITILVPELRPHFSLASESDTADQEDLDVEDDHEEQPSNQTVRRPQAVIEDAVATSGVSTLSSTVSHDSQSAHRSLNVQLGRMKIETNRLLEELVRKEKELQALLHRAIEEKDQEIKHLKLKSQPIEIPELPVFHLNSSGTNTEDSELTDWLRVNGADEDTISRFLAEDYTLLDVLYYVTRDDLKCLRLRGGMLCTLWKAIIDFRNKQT
Sequence of UniProt Q13705 (whole entry, looked up): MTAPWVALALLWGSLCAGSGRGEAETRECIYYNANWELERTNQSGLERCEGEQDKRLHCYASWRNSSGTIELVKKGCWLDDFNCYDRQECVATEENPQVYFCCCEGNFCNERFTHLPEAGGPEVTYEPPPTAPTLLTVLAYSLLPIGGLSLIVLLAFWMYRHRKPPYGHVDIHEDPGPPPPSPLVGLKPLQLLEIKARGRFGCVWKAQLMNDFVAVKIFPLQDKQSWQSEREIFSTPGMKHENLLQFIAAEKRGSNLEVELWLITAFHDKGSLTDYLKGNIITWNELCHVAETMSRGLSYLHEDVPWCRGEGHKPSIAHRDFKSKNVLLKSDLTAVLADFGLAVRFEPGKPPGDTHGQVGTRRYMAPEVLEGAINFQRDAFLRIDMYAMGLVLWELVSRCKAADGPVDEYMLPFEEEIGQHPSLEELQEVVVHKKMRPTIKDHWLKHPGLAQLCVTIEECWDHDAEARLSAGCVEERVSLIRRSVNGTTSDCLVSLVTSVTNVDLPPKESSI

Block 1 — effect on: cell-free assay; technique: competition with immobilised ligand; tested at: 1 µM
Compound: CC(=O)c1c(NS(C)(=O)=O)c2cc(-c3ccc(Cl)cc3)c(-c3ccc(Cl)cc3Cl)nc2n(C)c1=O
| target | remaining binding |
| --- | --- |
| STK35 (Homo sapiens, UniProt Q8TDR2) | 100% |
| Tyrosine-protein kinase ABL1, non-phosphorylated (ABL1, Homo sapiens, UniProt P00519, T315I) | 86% |
| BRAF (Homo sapiens, UniProt P15056) | 90% |
| MAPK3 (Homo sapiens, UniProt P27361) | 100% |
| ACVR2B (Homo sapiens, UniProt Q13705) | 100% |
| MAPK6 (Homo sapiens, UniProt Q16659) | 100% |
| SGK1 (Homo sapiens, UniProt O00141) | 100% |
| PLK3 (Homo sapiens, UniProt Q9H4B4) | 89% |
| BRAF (Homo sapiens, UniProt P15056, V600E) | 88% |
| MAP3K5 (Homo sapiens, UniProt Q99683) | 85% |
| STK24 (Homo sapiens, UniProt Q9Y6E0) | 97% |
| SRPK3 (Homo sapiens, UniProt Q9UPE1) | 100% |
| DAPK1 (Homo sapiens, UniProt P53355) | 80% |
| MAP3K7 (Homo sapiens, UniProt O43318) | 83% |
| PIK3CB (Homo sapiens, UniProt P42338) | 100% |

Block 2 — effect on: enzyme activity; action: inhibitor; tested at: 0.5 µM; baseline: control
Target: Tyrosine-protein kinase HCK (HCK, Homo sapiens, UniProt P08631)
Sequence of UniProt P08631 (whole entry, looked up): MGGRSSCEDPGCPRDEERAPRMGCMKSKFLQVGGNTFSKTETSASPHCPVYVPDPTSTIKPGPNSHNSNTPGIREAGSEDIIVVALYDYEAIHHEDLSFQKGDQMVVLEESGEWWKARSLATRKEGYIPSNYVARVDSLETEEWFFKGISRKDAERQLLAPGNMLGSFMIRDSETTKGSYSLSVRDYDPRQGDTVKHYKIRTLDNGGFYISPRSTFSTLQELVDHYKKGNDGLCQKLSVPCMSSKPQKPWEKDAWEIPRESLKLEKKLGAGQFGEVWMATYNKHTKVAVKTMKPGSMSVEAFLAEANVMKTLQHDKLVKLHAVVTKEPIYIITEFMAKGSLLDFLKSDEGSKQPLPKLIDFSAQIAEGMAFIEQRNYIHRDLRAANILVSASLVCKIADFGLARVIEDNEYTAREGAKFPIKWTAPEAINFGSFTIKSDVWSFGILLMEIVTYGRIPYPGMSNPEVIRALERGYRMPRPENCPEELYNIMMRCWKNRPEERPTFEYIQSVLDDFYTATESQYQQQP
| Structure (SMILES) | remaining activity [%] |
| --- | --- |
| Cn1cc(/C=C2\C(=O)Nc3ccc(S(N)(=O)=O)cc32)c2ccccc21 | 50 |
| Cc1ccc(NC(=O)c2ccc(CN3CCN(C)CC3)cc2)cc1Nc1nccc(-c2cccnc2)n1 | 84.9 |
| O=C1NC(=O)/C(=C/c2ccc3nccnc3c2)S1 | 92.2 |
| Nc1[nH]nc2nnc(-c3c(-c4ccccc4)nn4ccccc34)cc12 | 91.1 |
| CCN1/C(=C/C(C)=O)Sc2ccc(OC)cc21 | 97.5 |
| COc1ccc(Cl)cc1NC(=O)Nc1cc(C)nc2ccccc12 | 101 |
| O=c1cc(N2CCOCC2)oc2c1ccc1ccccc12 | 114 |
| Cc1nc(Nc2ncc(C(=O)Nc3c(C)cccc3Cl)s2)cc(N2CCN(CCO)CC2)n1 | 0.787 |
| CCOc1cc2ncnc(Nc3cccc(Br)c3)c2cc1OCC | 59.4 |
| COc1cc2ncnc(N3CCN(C(=O)Nc4ccc(Oc5ccccc5)cc4)CC3)c2cc1OC | 91.7 |
| CC(C)[C@H](CO)Nc1nc(Nc2cccc(Cl)c2)c2ncn(C(C)C)c2n1 | 55.6 |
| CC(C)c1nn(-c2c(Cl)cccc2Cl)c2nc(Cc3ccc(OCCO)cc3)[nH]c(=O)c12 | 94.7 |
| O=C(Nc1ccc(Cl)cc1)c1ccccc1NCc1ccncc1 | 101 |
| CN(C)CCCn1cc(C2=C(c3c[nH]c4ccccc34)C(=O)NC2=O)c2ccccc21 | 92.3 |
| Cn1cnc2cc3c(Nc4cccc(Br)c4)ncnc3cc21 | 70.4 |
| CCC(=O)Nc1ccc2ncnc(Nc3cccc(Br)c3)c2c1 | 93 |
| COc1cc2ncnc(Nc3ccc(OCc4ccccc4)cc3)c2cc1OC | 74.5 |
| COc1cc2ncc(-c3ccccc3)nc2cc1OC | 96.9 |

Block 3 — species: human; medium: microsomes or S9; tested at: 2 µM; time: 0.5 h
| SMILES | remaining compound |
| --- | --- |
| CN(c1ccc(Cl)nn1)c1ccc(N)cc1Cl | 88.9% |
| CC(C)NC(=O)Cn1cnc2c(sc3cccc(Cl)c32)c1=O | 87.8% |
| C=CCn1c(N)nnc1SC(C)C(=O)NC(N)=O (stereo not drawn) | 90.8% |
| CCc1c(OCC(=O)Nc2cc(OC)c(OC)c(OC)c2)c(=O)ccn1CCO | 75.1% |
| CCOc1cc(=O)n2c(c1C(=O)N1CCOCC1)CCCCC2 | 92.8% |
| O=C(Cn1c(=O)oc2ccccc21)N[C@@H]1CCN(c2cnccn2)C[C@H]1O | 22.2% |
| COc1ccc(CCN2CCC(NC(=O)c3cc4cc(Br)ccc4o3)CC2)cc1 | 14.1% |
| CC1=CC(=O)/C(=C(/C)Nc2cc(-c3ccccc3)n[nH]2)C(=O)O1 | 94.6% |
| CC(C)C(=O)N1CCN(c2cnc(N)c(-c3nc4ccccc4o3)c2)CC1 | 67.1% |
| CCCC(=O)c1cnc2c(OCC)nccc2c1N[C@H](C)c1ccccc1 | 43.4% |
| Cc1ccc(S(=O)(=O)Nc2cccc(NS(=O)(=O)c3ccc(C)cc3)c2-n2ccc3cccnc32)cc1 | 15.1% |

Block 4 — Compound: CCOc1ccc(Nc2c3c(nc4ccccc24)CCC3)cc1; organism: Leishmania infantum; technique: qPCR, delta Ct; species: golden hamster, infected; route: oral; dose: 10 mg/kg/day; time: 10 days; baseline: microglobulin reference gene
| measured | medium | relative mRNA level |
| --- | --- | --- |
| IL17 | spleen | 7.88 and 9.2 and 8.56 and 8.92 and 8.22 and 8.69 |
| IL10 | spleen | 9.36 and 10.4 and 8.37 and 7.09 and 6.96 |
| IL4 | spleen | -0.753 and -0.452 and -0.515 and -0.348 and -0.469 and -0.706 |
| IL10 | liver | 12.5 and 11.6 and 13.7 and 12.3 and 11.9 |

For quick reference, copied from above (block 2):
| Structure (SMILES) | remaining activity [%] |
| --- | --- |
| O=C(Nc1ccc(Cl)cc1)c1ccccc1NCc1ccncc1 | 101 |
| Nc1[nH]nc2nnc(-c3c(-c4ccccc4)nn4ccccc34)cc12 | 91.1 |
